Earlier results, collected from citations in different studies.
Lines come from different studies, so protocols differ. ± gives the spread as reported.

O=C1NC2CCCCC2NC1c1c[nH]c2ccccc12 (stereo not drawn) — IC50 (COLO 320 ABCB1-resistant colon; cytotoxicity): > 100 µM
Fc1cccc(COc2ccc(Nc3ncnc4ccc(-c5ccc(N6CCOCC6)cc5)cc34)cc2Cl)c1 — EC50 (Trypanosoma brucei; parasite growth): 1.9 µM
CCCC(=O)OCSc1ccccc1C(=O)NCCC(N)=O — EC50 (HIV-1; viral replication; CEM-SS, RF): 1.03 ± 0.54 µM
Cc1ccc(N(C)C(=O)[C@H](Cc2ccccc2)NC(=O)Cc2c[nH]c3ccc(O)cc23)cc1 — EC50 (HIV-1; viral replication; TZM-GFP, wild type): 0.032 ± 0.008 µM
O=C(c1cccc(-c2ccc3ncnc(Nc4ccc(OCc5cccc(F)c5)c(Cl)c4)c3c2)c1)N1CCOCC1 — EC50 (Trypanosoma brucei; parasite growth): 0.55 µM
Cc1c(CC(=O)N[C@@H](Cc2ccccc2)C(=O)N(C)c2ccc(Cl)cc2)c2ccccc2n1C(C)C — EC50 (HIV-1; viral replication; TZM-GFP, wild type): 0.15 ± 0.01 µM
O=C(C=C(O)C(F)(F)C(F)(F)F)c1cccs1 — EC50 (Plasmodium falciparum; parasite growth; 3D7): 1.92 ± 0.17 µM
CN(C(=O)[C@H](Cc1ccccc1)NC(=O)Cc1c[nH]c2ccc(O)cc12)c1ccc(Cl)cc1 — EC50 (HIV-1; viral replication; TZM-GFP, wild type): 0.022 µM
CC(=O)Sc1ccccc1C(=O)NCCC(N)=O — EC50 (HIV-1; viral replication; CEM-SS, RF): 1.13 ± 0.19 µM
CCn1c(C)c(CC(=O)N[C@@H](Cc2ccccc2)C(=O)N(C)c2cccc(F)c2)c2ccccc21 — EC50 (HIV-1; viral replication; TZM-GFP, wild type): 0.33 ± 0.13 µM
O=S(=O)(c1ccc(-c2ccc3ncnc(Nc4ccc(OCc5cccc(F)c5)c(Cl)c4)c3c2)cc1)N1CCCCC1 — EC50 (Trypanosoma brucei; parasite growth): 0.32 µM
c1ccc2c(c1)CCNC2c1c[nH]c2cnccc12 (stereo not drawn) — IC50 (COLO 320 ABCB1-resistant colon; cytotoxicity): > 100 µM
COc1ccc(Nc2nc(Nc3ccc(OCC[18F])cc3)ncc2Br)cc1 — tumour to tissue ratio (S180 tumour-bearing mice; intravenous, 30 min; reference: tumour over muscle): 2.14
Cn1cnc([N+](=O)[O-])c1Sc1ccccc1C(=O)NCCC(N)=O — EC50 (HIV-1; viral replication; human PBMC, 92HT599): 3.23 ± 2.81 µM
CC(C)(C)OC(=O)N1CCN(c2ccc(-c3ccc4ncnc(Nc5ccc(OCc6cccc(F)c6)c(Cl)c5)c4c3)cc2)CC1 — EC50 (Trypanosoma brucei; parasite growth): 6 µM
CCn1c(C)c(CC(=O)N[C@@H](Cc2ccccc2)C(=O)N(C)c2ccc(Cl)cc2)c2ccccc21 — EC50 (HIV-1; viral replication; TZM-GFP, wild type): 0.2 ± 0.09 µM
O=C(C=C(O)C(F)(F)C(F)(F)C(F)(F)F)c1cccnc1 — EC50 (Plasmodium falciparum; parasite growth; 3D7): 1.17 ± 0.03 µM
CCOC(=O)c1[nH]c(C)c(Cc2ccc(C(F)(F)F)nc2)c1C — EC50 (Plasmodium falciparum; parasite growth; 3D7): 0.0092 µM
Fc1cccc(COc2ccc(Nc3ncnc4ccc(-c5cccc(CN6CCOCC6)c5)cc34)cc2Cl)c1 — EC50 (Trypanosoma brucei; parasite growth): 0.36 µM
COC(F)(F)C(F)(F)C(O)=CC(=O)c1cccnc1 — EC50 (Plasmodium falciparum; parasite growth; 3D7): 3.39 ± 0.01 µM
c1ccc(Nc2ncnc3ccc(-c4cccc(N5CCOCC5)c4)cc23)cc1 — EC50 (Trypanosoma brucei; parasite growth): 11 µM
O=C(C=C(O)C(F)(F)C(F)(F)F)c1ccsc1 — EC50 (Plasmodium falciparum; parasite growth; 3D7): 1.87 ± 0.15 µM
O=C(c1ccc(-c2ccc3ncnc(Nc4ccc(OCc5cccc(F)c5)c(Cl)c4)c3c2)cc1)N1CCOCC1 — EC50 (Trypanosoma brucei; parasite growth): 1.2 µM
O=C(C=C(O)C(F)(F)C(F)(F)F)c1ccoc1 — EC50 (Plasmodium falciparum; parasite growth; 3D7): 0.86 ± 0.08 µM

Repeated from above:
Cn1cnc([N+](=O)[O-])c1Sc1ccccc1C(=O)NCCC(N)=O — EC50 (HIV-1; viral replication; human PBMC, 92HT599): 3.23 ± 2.81 µM
CC(C)(C)OC(=O)N1CCN(c2ccc(-c3ccc4ncnc(Nc5ccc(OCc6cccc(F)c6)c(Cl)c5)c4c3)cc2)CC1 — EC50 (Trypanosoma brucei; parasite growth): 6 µM
CCn1c(C)c(CC(=O)N[C@@H](Cc2ccccc2)C(=O)N(C)c2ccc(Cl)cc2)c2ccccc21 — EC50 (HIV-1; viral replication; TZM-GFP, wild type): 0.2 ± 0.09 µM
